Assay results from different studies.
Every numbered part comes from another study and shows a few of its results, in no order.

Study 1
Target: Interferon regulatory factor 3, full length, phosphomimetic (IRF3, Homo sapiens, UniProt Q14653, residues 1-427, S386D/S396D/S398D/S402D/T404D/S405D)
Sequence of UniProt Q14653 (whole entry, unmodified, looked up): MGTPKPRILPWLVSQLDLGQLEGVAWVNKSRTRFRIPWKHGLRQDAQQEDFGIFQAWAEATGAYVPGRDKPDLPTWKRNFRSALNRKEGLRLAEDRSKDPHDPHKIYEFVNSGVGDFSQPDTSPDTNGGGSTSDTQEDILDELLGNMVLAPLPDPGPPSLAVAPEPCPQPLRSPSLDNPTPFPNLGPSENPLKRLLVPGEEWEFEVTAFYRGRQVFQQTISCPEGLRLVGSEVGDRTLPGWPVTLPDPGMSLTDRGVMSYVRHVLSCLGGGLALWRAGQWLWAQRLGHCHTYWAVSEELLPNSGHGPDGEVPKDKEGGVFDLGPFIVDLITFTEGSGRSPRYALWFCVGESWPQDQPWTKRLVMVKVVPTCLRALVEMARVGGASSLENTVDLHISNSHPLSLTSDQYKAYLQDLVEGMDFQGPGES
Technique: protein-binding microarray
Molecule type: double-stranded DNA, one strand shown
Matrix: in vitro
Tested at: 2540 nM top
Notes: 60-bp whole probe
Added: salmon DNA 0.4 mg/ml
Relative to: random background probes
Direction: higher = stronger binding
Quantity: fitted relative affinity
Shared flanks, not repeated: GCCTAGCAC … GTCTTGATTCGCTTGACGCTGCTG
GACGATATCGGGTATCCAGACGTGCTA: 0.697 z-score
TTAGGTATCGGGTTACGGTTAGTGCTA: 2.02 z-score
GACGATCACAGACTGGAGACGTGCTAG: 0.0578 z-score
ATAGGTATCCTTCTCCTTTAGTGCTAG: 7.06 z-score
GACTGTCTCCTACTGCTGACGTGCTAG: 1.13 z-score
TTGGATATCAGTATCGATTAGTGCTAG: 1.36 z-score
GACGGAGTGGGTATCGGGACGTGCTAG: -0.256 z-score
TTAGGACTGGCTTTCGGTTAGTGCTAG: 0.563 z-score
TTAGGTTCCCTTTTCTTTTAGTGCTAG: 8.01 z-score
GACGATATCGACTATCGGGACGTGCTA: 0.144 z-score
GACGGACTGCAACTGCTGACGTGCTAG: -0.572 z-score

Study 2
Target: RNA binding protein fox-1 homolog 2, RRM domain, GST-SBP tag (RBFOX2, Homo sapiens, UniProt O43251-10, residues 100-194)
Technique: RNA Bind-n-Seq
Molecule type: RNA
Matrix: in vitro
Tested at: 365 nM
Notes: natural RNA segment, single round, ends assumed
Relative to: no-protein control
Direction: higher = stronger binding
Quantity: RBNS enrichment (R)
Shared flanks, not repeated: GGGAGUUCUACAGUCCGACGAUC … UGGAAUUCUCGGGUGCCAA
Residues (chain): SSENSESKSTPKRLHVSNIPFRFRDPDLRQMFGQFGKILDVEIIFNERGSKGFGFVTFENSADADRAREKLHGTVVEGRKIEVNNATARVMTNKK
CUUGUAAAUAUUGAUAGCACUGGCUUCCUCCAAAGUCCCAAUACUCUAGCCCCGCUCUCUUCCCCUCUUUCUGUCCCCCAUUUUCCAGGGGGUAUAUGGUCAGGGCUCCC: 0.778
AGAUGCCAAGCCCCGGGGUCUCACCAAAGCAGACAUAGAGCAGCUCCCGUCGUACCGCUUUAACCCGGACAGCCAUCAGUCGGAGCAGACGCGGUGUGUGGUCUGCUUCA: 0.468
UUUAUUAGUUAAUUUAAAUGAACACUCUUAUGUUCCAGUCUUAUAAAUAAAGCCUAUAGUGCACUUCUGUUUGUGUGGUGGGUACGGAUUAUAUUGUUUUGAGGAUACAA: 0.624
UCUCAAUGAAGCCAGCUCACAGUGCUGUGUGCCCCGGUCACCUAGCAAGCUGCCGAACCAAAAGAAUUUGCACCCCGCUGCGGGCCCACGUGGUUGGGGCCCUGCCCUGG: 0.574
AGCAGUCCGGGAGGCUGUGGAAAUGUUUAUUUAUAUUGUCCUUUUUUACCGAAGACAUGCAUACUCCAUCGAUGUUGUAUUCACAGUGGCUGAGGAAUUCUUGUACGCAG: 1.05
AAAGGUACUAUAUUUGCCAGACUCUAGACAUAAGAUAUUGUACAUAAAGAGAAUUUUUUUUGCCUUUAAAUAGAUAAAAGUAUCUAUCAGAUAAAAAUCAGGUUGUAAGU: 0.551
GCCGGGAGACCAGUGUUAGAGGAUCCAAGCGACCUAAACAGCUGCUUUAUGAAAUAUCCUUACUUUAUCUGGGCUUAAUAAGUCACUGACAUCAGCACUGCCAACUCGGC: 0.293
CUAUGUAACAUGUAGGAAGUAGGAAGUAAAUUAUAGUGAUGUAAUCUUGAAUUGUAACUGUUCUUGAAUUUAAUAAUCUGUAGGGUAAUUAGUAACAUGUGUUAAGUAUU: 0.694

Study 3
Molecule: PhoQ, residues 284 288 289 292 302 303 SIHMAM
Technique: Sort-seq
Measured: YFP reporter
Matrix: E. coli
Notes: PhoQ-PhoP variant library
Added: 10 µM Mg2+
Relative to: high Mg2+ state
Direction: higher = stronger signaling
Quantity: fold induction
PhoP, residues 12 14 15 18 19 GMGLL (Escherichia coli, UniProt P23836): 2.3
PhoP, residues 12 14 15 18 19 QQAYL (Escherichia coli, UniProt P23836): 11.2
PhoP, residues 12 14 15 18 19 LFHKL (Escherichia coli, UniProt P23836): 1.79

Study 4
Target: Histone acetyltransferase KAT6A, winged helix 2, GST fusion (KAT6A, Homo sapiens, UniProt Q92794, residues 85-181)
Technique: protein binding microarray
Molecule type: double-stranded DNA, one strand shown
Matrix: in vitro
Tested at: not given
Notes: 8-mer, flanks averaged, mean of 2 arrays, mostly near background
Relative to: not given
Direction: higher = stronger binding
Quantity: E-score
Target sequence (chain): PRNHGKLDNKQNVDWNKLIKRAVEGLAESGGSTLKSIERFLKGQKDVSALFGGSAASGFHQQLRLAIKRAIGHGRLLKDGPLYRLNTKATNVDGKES
ATAGTTTA: 0.0166
CCGGGGTA: -0.0589
CACGTAAG: -0.263
GACTCACA: 0.0535
AGGTCTAC: -0.0763
AGTACATG: -0.0855
AGGACATA: 0.0322
AAGTCATT: -0.233
ACATTAAG: -0.0399
GTAGTCCA: -0.0344
AAGTTTGC: 0.0109
CTAAGTAA: -0.0481
CCGGTAAA: -0.159

For quick reference, copied from above (study 2):
CUUGUAAAUAUUGAUAGCACUGGCUUCCUCCAAAGUCCCAAUACUCUAGCCCCGCUCUCUUCCCCUCUUUCUGUCCCCCAUUUUCCAGGGGGUAUAUGGUCAGGGCUCCC: 0.778
AGAUGCCAAGCCCCGGGGUCUCACCAAAGCAGACAUAGAGCAGCUCCCGUCGUACCGCUUUAACCCGGACAGCCAUCAGUCGGAGCAGACGCGGUGUGUGGUCUGCUUCA: 0.468
UUUAUUAGUUAAUUUAAAUGAACACUCUUAUGUUCCAGUCUUAUAAAUAAAGCCUAUAGUGCACUUCUGUUUGUGUGGUGGGUACGGAUUAUAUUGUUUUGAGGAUACAA: 0.624
UCUCAAUGAAGCCAGCUCACAGUGCUGUGUGCCCCGGUCACCUAGCAAGCUGCCGAACCAAAAGAAUUUGCACCCCGCUGCGGGCCCACGUGGUUGGGGCCCUGCCCUGG: 0.574
AGCAGUCCGGGAGGCUGUGGAAAUGUUUAUUUAUAUUGUCCUUUUUUACCGAAGACAUGCAUACUCCAUCGAUGUUGUAUUCACAGUGGCUGAGGAAUUCUUGUACGCAG: 1.05
AAAGGUACUAUAUUUGCCAGACUCUAGACAUAAGAUAUUGUACAUAAAGAGAAUUUUUUUUGCCUUUAAAUAGAUAAAAGUAUCUAUCAGAUAAAAAUCAGGUUGUAAGU: 0.551
